Measured values from different studies.
Protocols differ between the studies behind these lines. “And” joins repeats or separate records; there may be more than shown. ± marks the error that the study gave.

CC(C)(C)c1nc2c3cc[nH]c(=O)c3c3cc(F)ccc3c2[nH]1
inhibition (HeLa expressing Ub(G76V)-GFP; Ub(G76V)-GFP degradation, inhibitor, cycloheximide chase; 12 µM): 13%

Cc1cc(=O)oc2cc(NC(=O)CCCCCCC(=O)NO)ccc12
viability (HBL-1; 1 µM, 120 h): 15.7%

Cn1cc(Nc2nccc(-c3ccc4c(c3)CN(C3COC3)CC[C@H]4NC(=O)c3cn(C(C)(C)C)nn3)n2)cn1
pathway activation z-score (mouse splenic B cells; measured: IL-1 signalling; 30 mg/kg, IgD-activated in vivo; relative to: vehicle, direction not given): 1.26

COc1cc(/C=C/C(=O)N2CCC=CC2=O)cc(OC)c1OC
mRNA expression (MDA-MB-468; qRT-PCR, measured: Survivin; 30 µM, 6 h; relative to: time zero): 67.4 ± 3.3%

CCS(=O)(=O)c1nc(C2CC2)cc(C(F)(F)F)n1
cells with nuclear RelA (HeLa Kyoto; RelA nuclear import, high content imaging; 50 µM, 3 h, added: 1 µM PMA, 60 min): 13.4% and 6.66%

CC(C)NCC(O)c1ccc(O)c(O)c1 (stereo not shown)
sarcomere length (mouse ventricular cardiomyocytes; dose not given, 0.075 s): 1.79 µm

CCCCCOc1ccc(/C=C\c2cccc(O)c2C(=O)O)cc1
viability (HBL-1; 1 µM, 120 h): 100%

CCCCC(CC)CNC(=N)NC(=N)NCCCCCCNC(=N)NC(=N)NCC(CC)CCCC.Cl.Cl (stereo not shown)
inhibition (BT-12; cell viability, MTT; 10 µM, 72 h): 95.2%

CCn1cc(-c2cc(Cn3ccnc3)cc3c2CCN([C@H](c2cc(OC)ccn2)C2CC2)C3=O)c(C(F)(F)F)n1
EC50 (KNS-62; cell growth, inhibitor; 120 h): > 30 µM

CC(C)N(CCC(=O)c1ccc2ccccc2c1)Cc1ccccc1
inhibition (HeLa expressing Ub(G76V)-GFP; Ub(G76V)-GFP degradation, inhibitor, cycloheximide chase; 12 µM): 83%

CC1(C)CN(CCCCC(=O)N[C@@H](CCC(=O)O)C(=O)N[C@@H](CCC(=O)O)C(=O)N[C@H](CCCCNC(=O)CCCCCCC(=O)NCCCC[C@H](NC(=O)N[C@@H](CCC(=O)O)C(=O)O)C(=O)O)C(=O)O)CC[N]2CC(C)(C)[S][Tc]2(=[O])[S]1 (stereo partly shown) [technetium-99m labelled]
surface-bound activity (LNCaP; 25 nM, 1 h, 4 °C): 2.21 ± 0.35 %AD/mg protein

COC(=O)[C@]12CCC(C)(C)C[C@H]1[C@H]1C(=O)C=C3[C@@]4(C)C=C(C#N)C(=O)C(C)(C)[C@@H]4CC[C@@]3(C)[C@]1(C)CC2
point of departure (HepG2; high content imaging, measured: nuclear size; 24 h, expected PoD over plates): 2.97 µM

COc1cc2ncnc(Nc3ccc(Oc4ccccc4)c(C)c3C)c2cc1OC.Cl
Bliss synergy score (NCI-H2087 (BRAF L597V); cell viability; concentration not given, 72 h, added: trametinib; direction not given): 21%

Nc1ncnc2c1ncn2[C@@H]1O[C@H](CSCC[C@H](N)C(=O)O)[C@@H](O)[C@H]1O
viability (HBL-1; 0.5 µM, 120 h): 103%

Cc1nn(-c2nc3ccc(Cl)c(Cl)c3[nH]2)c(O)c1C1OC(=O)c2ccccc21 (stereo not shown)
inhibition (RAW-ISG; IFN luciferase reporter; 40 µM, added: HT-DNA): 96.8% and 96.9% and 96.7%

O=C1NC(=O)C(c2cn(CCCO)c3ncccc23)=C1c1cnccn1
inhibition (HeLa expressing Ub(G76V)-GFP; Ub(G76V)-GFP degradation, cycloheximide chase; 12 µM): -16%

Cc1cc(Nc2ncc(Cl)c(Nc3ccccc3S(=O)(=O)C(C)C)n2)c(OC(C)C)cc1C1CCNCC1
log2 fold change (CLB-BAR; phosphoproteomics LC-MS/MS, measured: STAM2 phosphorylation; 200 nM, 60 min; relative to: untreated): -1.68

Nc1ncnc2c1ncn2[C@@H]1C=C(CO)[C@@H](O)[C@H]1O
viability (HBL-1; 0.5 µM, 120 h): 68.8%

CN(C)C/C=C/C(=O)Nc1cc2c(Nc3ccc(F)c(Cl)c3)ncnc2cc1O[C@H]1CCOC1
spheroid volume (KB-C2 spheroids; 6 µM, day 12, single dose): 12.9 ± 0.7 mm³

COc1cnc2cccc(N3CCc4c(cc(Cn5ccnc5C)cc4-c4cn(C)nc4C(F)(F)F)C3=O)c2c1
EC50 (G-402; cell growth, inhibitor; 120 h): > 30 µM

Cc1cc(OCc2nnc(SC3CCCC3)n2-c2cccnc2)ccc1-c1ccc(S(C)(=O)=O)cc1
inhibition (BT-12; cell viability, MTT; 10 µM, 72 h): 94.8%

O=C(/C=C/C=C/C=C/C1CCCCC1)NC1=C[C@@](O)(/C=C/C=C/C=C/C(=O)NC2=C(O)CCC2=O)[C@@H]2O[C@@H]2C1=O
GI50 (PANC-1; cell growth, CellTiter-Glo; 78 h): 16.3 µM

Cn1cc(CNCC2CCN(c3ncc(C(=O)NO)cn3)CC2)c2ccccc21
inhibition (BT-12; cell viability, MTT; 10 µM, 72 h): 95.4%

CCOc1nc(-c2cccc(O)c2)cc(-c2cc3cc(Cl)ccc3nc2N2CCOCC2)c1C#N
selectivity ratio (NFS-60; MTT; relative to: WI-38 EC50 over NFS-60 IC50): 0.257

C=CCn1c(=O)c2cnc(Nc3ccc(N4CCN(C)CC4)cc3)nc2n1-c1ccc2c(n1)[C@@](O)(CC)CC2
G2/M cells in subpopulation (OVCAR-3; flow cytometry, measured: pHH3+γH2Ax+; concentration not given): 16.3%

Cc1cc(Nc2nn(-c3ccccc3)c(=O)c3ccccc23)n[nH]1
viability (HBL-1; 0.5 µM, 120 h): 113%

CCC(C)(C)C(=O)O[C@H]1C[C@@H](C)C=C2C=C[C@H](C)[C@H](CC[C@@H]3C[C@@H](O)CC(=O)O3)[C@H]21
inhibition (BT-12; cell viability, MTT; 10 µM, 72 h): 86.7%

Cn1cc(-c2ccc(-c3cncc(Cl)c3N3CCC4(CCNC4=O)CC3)cc2)cn1
log2 fold change (COLO 205; gene expression, microarray, measured: PLAC8 mRNA; concentration not given, 6 h; relative to: untreated cells): -2.3

Cc1ccc(NC(=O)c2ccc(CN3CCN(C)CC3)cc2)cc1Nc1nc(-c2cccnc2)cs1
ATP level (hiPSC cardiomyocytes; CellTiter-Glo; concentration not given, 24 h; relative to: vehicle): 101%

Clc1nc(NCc2ccco2)c2[nH]cnc2n1
ΔPSI (FD iPSC-derived cardiomyocytes; alternative splicing, RNA-seq, measured: CD200 exon chr3:112340901-112340983; unit not given; relative to: DMSO minus compound): 0.211

COc1cc2nccc(Oc3ccc(NC(=S)NC(=O)c4ccccc4C)cc3)c2cc1OC
inhibition (HeLa expressing Ub(G76V)-GFP; Ub(G76V)-GFP degradation, cycloheximide chase; 12 µM): 5%

Cc1[nH]c(C)c(C2CCC(c3ccc(Cl)cc3)CC2)c(=O)c1Cl (stereo not shown)
IC50 (Plasmodium yoelii; 17XL; 384-well): 42 ± 1 nM

COc1ccc(NC(=S)N/N=C/c2cccc3cc4ccccc4nc23)cc1
early apoptotic cells (HeLa; annexin V/PI; concentration not given, 48 h, dosed at IC12.5): 5.57%

O=C(C[C@@H](C(F)F)n1ccc(F)n1)N1CCC(O)(Cn2cnc3c(cnn3-c3ccc(F)cc3)c2=O)CC1
apoptotic cells (early plus late) (CHP-212 resistant cells (pooled); annexin V-PI flow cytometry; 1 µM, 48 h): 9.97% and 12.7% and 11.8%

CCS(=O)(=O)c1cccc(-c2cc(C(=O)NC3CCN(C)CC3)c(C)c3[nH]c4ncc(C)cc4c23)c1
inhibition (BT-12; cell viability, MTT; 10 µM, 72 h): 94.4%

Nc1ccccc1NC(=O)CCCCCCC(=O)Nc1ccccc1
viability (HBL-1; 1 µM, 120 h): 85.4%

CC(=O)c1cc2c(o1)C(=O)c1ccccc1C2=O
inhibition (BT-12; cell viability, MTT; 10 µM, 72 h): 94.6%

CC(=O)O/N=C1/C(=C2/C(=O)Nc3cc(Br)ccc32)Nc2ccccc21
inhibition (HeLa expressing Ub(G76V)-GFP; Ub(G76V)-GFP degradation, cycloheximide chase; 12 µM): 9%

Nc1nc(S)nc(O)c1N=Cc1cn(-c2ccccc2)nc1-c1ccc(Cl)cc1
CC30 (CCRF-CEM; differential nuclear staining): 9.08 µM

CCCCN1C[C@H](O)[C@@H](O)[C@@H](O)[C@H]1CO
IC50 (sample BC patient fibroblasts; Gb3 level lowering, LC-MS/MS, measured: Gb3 d18:1/16:0; 216 h): 19900 nM

Cn1c(Nc2nc3ccc(C(F)(F)F)cc3s2)nc2cc(C(=O)NCCOCCO)ccc21
fold change (SH-SY5Y; RNA-seq, measured: CMKLR1 mRNA; 5 µM, 5 h; relative to: untreated cells): 4.05

COc1ccc(-n2nc(C(C)=O)s/c2=N\N=C(/C)c2ccc(NC(=O)c3ccc(C)cc3)cc2)cc1
toxicity (MCF7; 0.078 µM): 14.5%

C[C@H]1[C@@H](O)O[C@@H]2O[C@@]3(C)CC[C@H]4[C@H](C)CC[C@@H]1[C@@]24OO3
early apoptotic cells (THP-1; annexin V/PI flow cytometry, measured: annexin V+/PI-; 0.8 µM, 24 h): 1.9%

Cc1c(C(=O)O)ccc2c3n(nc12)[C@@H]1[C@H](C3)N(CC2CC2)[C@@]2(C(=O)Nc3cc(Cl)ccc32)[C@H]1c1cccc(Cl)c1F
GI50 (UM-UC-11 (MDM2-amplified); cell proliferation, alamarBlue; 120 h): 0.009 µM

CC[S+]([O-])c1nc(-c2cccc(OCc3ccccc3)c2)cc(C(F)(F)F)n1 (stereo not shown)
cells with nuclear RelA (HeLa Kyoto; RelA nuclear import, high content imaging; 0.02 µM, 3 h, added: 1 µM PMA, 60 min): 70.9% and 75.9%

Nc1ccc2cc3ccc(N)cc3nc2c1
inhibition (BT-12; cell viability, MTT; 10 µM, 72 h): 94.9%

Cc1cc(C)c(CNC(=O)c2cc(-c3ccc(CN4CCOCC4)cc3)cc3c2cnn3C2CCCC2)c(=O)[nH]1
viability (HBL-1; 0.5 µM, 120 h): 110%

c1ccc2c(-c3ccncc3)c[nH]c2c1
inhibition (HeLa expressing Ub(G76V)-GFP; Ub(G76V)-GFP degradation, cycloheximide chase; 12 µM): 23%

CC/C(=N\NC(=O)NCc1cccc(O)c1)c1ccc(O)c(C)c1O
protein level (SK-OV-3; Western blot, measured: YAP; 10 µM, 1 h, 3D gellan gum culture, unit not given; relative to: β-actin): 1.06 ± 0.17

C=CC(=O)N1CCC(COCC(=O)N2CCN(c3nc(-c4cnc(N)nc4C(F)F)nc(N4CCOC[C@@H]4C)n3)CC2)CC1
IC50 (A2058; western blot, measured: phospho-PKB/Akt Ser473; 2 h): 246 nM

COc1cc2ncc(-c3ccccc3)nc2cc1OC
inhibition (HeLa expressing Ub(G76V)-GFP; Ub(G76V)-GFP degradation, cycloheximide chase; 12 µM): 29%

CCn1cc(-c2cc(Cn3ccoc3=N)cc3c2CCN([C@@H](C)c2cc(OC)ccn2)C3=O)c(C(F)(F)F)n1
EC50 (OCI-Ly7; cell growth, inhibitor; 120 h): 1.4 µM

Nc1ncnc2c1c(-c1ccc(Oc3ccccc3)cc1)cn2C1CCCC1
inhibition (HeLa expressing Ub(G76V)-GFP; Ub(G76V)-GFP degradation, inhibitor, cycloheximide chase; 12 µM): 44%

NC(=O)C1CCCc2c1[nH]c1ccc(Cl)cc21 (racemic)
viability (HBL-1; 1 µM, 120 h): 104%

COc1cccc2c1C(=O)c1c(O)c3c(c(O)c1C2=O)C[C@@](O)(C(=O)CO)C[C@@H]3O[C@H]1C[C@H](N)[C@H](O)[C@H](C)O1
maximal cytotoxicity (A-172; WST-1; 72 h, highest tested concentration): 92.3%

Repeated from above:
CC1(C)CN(CCCCC(=O)N[C@@H](CCC(=O)O)C(=O)N[C@@H](CCC(=O)O)C(=O)N[C@H](CCCCNC(=O)CCCCCCC(=O)NCCCC[C@H](NC(=O)N[C@@H](CCC(=O)O)C(=O)O)C(=O)O)C(=O)O)CC[N]2CC(C)(C)[S][Tc]2(=[O])[S]1 (stereo partly shown) [technetium-99m labelled]
surface-bound activity (LNCaP; 25 nM, 1 h, 4 °C): 2.21 ± 0.35 %AD/mg protein

COC(=O)[C@]12CCC(C)(C)C[C@H]1[C@H]1C(=O)C=C3[C@@]4(C)C=C(C#N)C(=O)C(C)(C)[C@@H]4CC[C@@]3(C)[C@]1(C)CC2
point of departure (HepG2; high content imaging, measured: nuclear size; 24 h, expected PoD over plates): 2.97 µM

COc1cc2ncnc(Nc3ccc(Oc4ccccc4)c(C)c3C)c2cc1OC.Cl
Bliss synergy score (NCI-H2087 (BRAF L597V); cell viability; concentration not given, 72 h, added: trametinib; direction not given): 21%

Nc1ncnc2c1ncn2[C@@H]1O[C@H](CSCC[C@H](N)C(=O)O)[C@@H](O)[C@H]1O
viability (HBL-1; 0.5 µM, 120 h): 103%

Cc1nn(-c2nc3ccc(Cl)c(Cl)c3[nH]2)c(O)c1C1OC(=O)c2ccccc21 (stereo not shown)
inhibition (RAW-ISG; IFN luciferase reporter; 40 µM, added: HT-DNA): 96.8% and 96.9% and 96.7%

O=C1NC(=O)C(c2cn(CCCO)c3ncccc23)=C1c1cnccn1
inhibition (HeLa expressing Ub(G76V)-GFP; Ub(G76V)-GFP degradation, cycloheximide chase; 12 µM): -16%

Cc1cc(Nc2ncc(Cl)c(Nc3ccccc3S(=O)(=O)C(C)C)n2)c(OC(C)C)cc1C1CCNCC1
log2 fold change (CLB-BAR; phosphoproteomics LC-MS/MS, measured: STAM2 phosphorylation; 200 nM, 60 min; relative to: untreated): -1.68
